Assay results from different studies.
Each line is one published result; not all experiments were run side by side.
ST14: Suppressor of tumorigenicity 14 protein (ST14, Homo sapiens, UniProt Q9Y5Y6)
Sequence of UniProt Q9Y5Y6 (whole entry, looked up): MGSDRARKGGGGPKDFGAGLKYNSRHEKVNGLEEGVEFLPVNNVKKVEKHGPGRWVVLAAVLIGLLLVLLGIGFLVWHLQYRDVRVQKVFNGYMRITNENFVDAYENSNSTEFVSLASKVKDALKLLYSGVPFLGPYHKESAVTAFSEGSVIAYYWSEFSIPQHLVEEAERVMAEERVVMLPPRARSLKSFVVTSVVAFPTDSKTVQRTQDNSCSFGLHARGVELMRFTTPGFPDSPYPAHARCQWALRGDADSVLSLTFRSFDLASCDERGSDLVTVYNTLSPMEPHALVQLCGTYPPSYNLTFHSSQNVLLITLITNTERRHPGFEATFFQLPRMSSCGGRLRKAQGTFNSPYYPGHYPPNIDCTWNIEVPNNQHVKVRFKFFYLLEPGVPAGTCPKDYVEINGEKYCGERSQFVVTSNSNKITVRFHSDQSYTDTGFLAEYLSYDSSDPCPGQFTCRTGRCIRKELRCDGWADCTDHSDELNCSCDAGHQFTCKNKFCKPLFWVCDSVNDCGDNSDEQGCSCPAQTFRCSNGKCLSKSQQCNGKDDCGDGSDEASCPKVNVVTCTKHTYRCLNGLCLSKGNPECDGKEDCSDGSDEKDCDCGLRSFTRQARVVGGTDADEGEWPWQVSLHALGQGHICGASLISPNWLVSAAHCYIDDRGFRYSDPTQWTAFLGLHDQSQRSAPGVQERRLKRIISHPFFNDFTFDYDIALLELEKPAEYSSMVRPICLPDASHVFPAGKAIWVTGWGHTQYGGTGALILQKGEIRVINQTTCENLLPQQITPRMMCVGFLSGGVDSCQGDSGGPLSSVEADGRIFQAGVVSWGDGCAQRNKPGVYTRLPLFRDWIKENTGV
TMEM97: Sigma intracellular receptor 2 (TMEM97, Homo sapiens, UniProt Q5BJF2)
Sequence of UniProt Q5BJF2 (whole entry, looked up): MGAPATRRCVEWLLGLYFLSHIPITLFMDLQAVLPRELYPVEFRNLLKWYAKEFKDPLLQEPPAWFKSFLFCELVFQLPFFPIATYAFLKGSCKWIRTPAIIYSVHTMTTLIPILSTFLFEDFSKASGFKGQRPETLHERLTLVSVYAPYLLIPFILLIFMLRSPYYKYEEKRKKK
PFF0160c: Dihydroorotate dehydrogenase (quinone), mitochondrial (PFF0160c, Plasmodium falciparum, UniProt Q08210)
Sequence of UniProt Q08210 (whole entry, looked up): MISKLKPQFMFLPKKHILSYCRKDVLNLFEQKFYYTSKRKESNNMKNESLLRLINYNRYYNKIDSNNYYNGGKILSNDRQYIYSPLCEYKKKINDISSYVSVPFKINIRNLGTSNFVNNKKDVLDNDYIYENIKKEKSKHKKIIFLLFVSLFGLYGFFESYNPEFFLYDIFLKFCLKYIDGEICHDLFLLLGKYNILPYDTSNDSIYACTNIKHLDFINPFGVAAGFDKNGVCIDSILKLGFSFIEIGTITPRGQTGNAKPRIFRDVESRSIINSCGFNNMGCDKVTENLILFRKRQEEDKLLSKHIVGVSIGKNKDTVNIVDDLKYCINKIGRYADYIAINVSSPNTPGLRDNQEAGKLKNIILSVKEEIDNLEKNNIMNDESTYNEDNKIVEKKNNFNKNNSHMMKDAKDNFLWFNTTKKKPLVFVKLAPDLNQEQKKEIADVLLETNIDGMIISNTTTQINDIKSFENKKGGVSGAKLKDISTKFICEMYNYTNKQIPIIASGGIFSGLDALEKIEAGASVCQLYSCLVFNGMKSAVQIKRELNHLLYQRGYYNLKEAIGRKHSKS
CA2: Carbonic anhydrase 2 (CA2, Homo sapiens, UniProt P00918)
CA1: Carbonic anhydrase 1 (CA1, Homo sapiens, UniProt P00915)
Sequence of UniProt P00915 (whole entry, looked up): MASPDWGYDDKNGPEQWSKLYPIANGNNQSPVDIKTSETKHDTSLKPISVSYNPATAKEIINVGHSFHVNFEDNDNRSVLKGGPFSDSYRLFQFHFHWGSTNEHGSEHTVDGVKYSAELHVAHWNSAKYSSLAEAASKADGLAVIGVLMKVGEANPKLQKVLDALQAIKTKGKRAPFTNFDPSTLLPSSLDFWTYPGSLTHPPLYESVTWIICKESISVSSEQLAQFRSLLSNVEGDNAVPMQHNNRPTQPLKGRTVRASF
Sequence of UniProt O43318 (whole entry, looked up): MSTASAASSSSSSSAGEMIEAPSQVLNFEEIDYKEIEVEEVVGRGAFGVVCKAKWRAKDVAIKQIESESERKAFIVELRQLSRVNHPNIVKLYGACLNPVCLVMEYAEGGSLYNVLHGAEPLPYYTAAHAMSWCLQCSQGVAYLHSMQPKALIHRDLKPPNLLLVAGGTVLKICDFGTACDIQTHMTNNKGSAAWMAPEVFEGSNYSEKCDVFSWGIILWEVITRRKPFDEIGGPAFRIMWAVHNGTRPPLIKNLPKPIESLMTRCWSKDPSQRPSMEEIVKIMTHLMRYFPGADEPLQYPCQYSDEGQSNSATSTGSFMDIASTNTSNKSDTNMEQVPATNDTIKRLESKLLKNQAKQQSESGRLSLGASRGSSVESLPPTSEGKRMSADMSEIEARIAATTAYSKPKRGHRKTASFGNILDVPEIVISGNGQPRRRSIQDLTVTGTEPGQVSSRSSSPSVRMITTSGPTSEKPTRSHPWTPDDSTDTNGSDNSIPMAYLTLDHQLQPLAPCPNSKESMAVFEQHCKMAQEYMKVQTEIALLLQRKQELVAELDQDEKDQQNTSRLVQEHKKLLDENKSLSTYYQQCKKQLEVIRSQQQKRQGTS
Sequence of UniProt O15197 (whole entry, looked up): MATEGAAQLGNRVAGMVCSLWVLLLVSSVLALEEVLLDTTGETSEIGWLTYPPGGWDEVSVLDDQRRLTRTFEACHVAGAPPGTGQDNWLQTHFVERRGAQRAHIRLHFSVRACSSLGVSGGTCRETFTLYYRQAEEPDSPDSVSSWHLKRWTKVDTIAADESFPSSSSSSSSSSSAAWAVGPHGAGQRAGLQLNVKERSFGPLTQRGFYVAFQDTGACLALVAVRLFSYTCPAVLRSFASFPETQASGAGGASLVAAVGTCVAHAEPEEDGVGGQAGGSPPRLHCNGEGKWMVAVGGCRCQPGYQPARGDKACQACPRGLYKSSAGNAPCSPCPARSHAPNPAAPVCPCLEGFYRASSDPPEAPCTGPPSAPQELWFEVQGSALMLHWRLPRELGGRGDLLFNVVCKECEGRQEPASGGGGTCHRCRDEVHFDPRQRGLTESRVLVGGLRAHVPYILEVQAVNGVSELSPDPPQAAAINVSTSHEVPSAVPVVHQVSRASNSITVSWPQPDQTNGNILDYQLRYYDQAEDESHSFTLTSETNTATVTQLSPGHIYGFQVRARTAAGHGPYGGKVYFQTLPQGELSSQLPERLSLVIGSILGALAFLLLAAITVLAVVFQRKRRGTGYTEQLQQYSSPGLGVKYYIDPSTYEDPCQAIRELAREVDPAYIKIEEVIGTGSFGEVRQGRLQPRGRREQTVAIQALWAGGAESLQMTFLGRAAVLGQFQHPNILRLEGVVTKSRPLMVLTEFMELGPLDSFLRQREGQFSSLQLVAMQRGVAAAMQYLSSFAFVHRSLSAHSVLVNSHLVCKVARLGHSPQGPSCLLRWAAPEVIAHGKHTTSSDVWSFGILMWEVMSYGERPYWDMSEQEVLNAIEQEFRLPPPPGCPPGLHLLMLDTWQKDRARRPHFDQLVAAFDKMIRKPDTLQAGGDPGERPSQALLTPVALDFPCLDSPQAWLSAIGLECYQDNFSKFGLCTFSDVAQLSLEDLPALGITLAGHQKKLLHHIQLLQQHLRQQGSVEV
Sequence of UniProt P28335 (whole entry, looked up): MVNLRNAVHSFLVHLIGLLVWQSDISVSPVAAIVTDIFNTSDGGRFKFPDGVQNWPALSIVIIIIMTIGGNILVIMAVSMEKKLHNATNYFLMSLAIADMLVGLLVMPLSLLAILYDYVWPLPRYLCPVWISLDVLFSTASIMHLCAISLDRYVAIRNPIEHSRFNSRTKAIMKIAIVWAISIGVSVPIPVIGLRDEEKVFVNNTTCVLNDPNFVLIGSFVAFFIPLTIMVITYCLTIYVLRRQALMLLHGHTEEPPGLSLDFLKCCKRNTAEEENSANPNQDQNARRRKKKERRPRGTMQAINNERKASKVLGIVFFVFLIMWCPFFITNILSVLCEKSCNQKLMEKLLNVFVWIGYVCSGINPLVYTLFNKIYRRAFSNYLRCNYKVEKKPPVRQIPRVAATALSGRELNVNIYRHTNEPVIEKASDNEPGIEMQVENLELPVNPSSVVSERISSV
Sequence of UniProt Q8N752 (whole entry, looked up): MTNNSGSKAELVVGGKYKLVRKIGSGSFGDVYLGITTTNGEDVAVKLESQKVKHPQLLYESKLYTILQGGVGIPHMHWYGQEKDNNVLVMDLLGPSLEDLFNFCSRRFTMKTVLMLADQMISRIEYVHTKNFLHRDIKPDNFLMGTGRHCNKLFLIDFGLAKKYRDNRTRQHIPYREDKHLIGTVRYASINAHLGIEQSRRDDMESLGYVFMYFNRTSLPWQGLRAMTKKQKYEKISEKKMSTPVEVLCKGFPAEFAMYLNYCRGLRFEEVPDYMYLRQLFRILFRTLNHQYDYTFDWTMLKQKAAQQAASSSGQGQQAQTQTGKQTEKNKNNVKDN
Sequence of UniProt P08173 (whole entry, looked up): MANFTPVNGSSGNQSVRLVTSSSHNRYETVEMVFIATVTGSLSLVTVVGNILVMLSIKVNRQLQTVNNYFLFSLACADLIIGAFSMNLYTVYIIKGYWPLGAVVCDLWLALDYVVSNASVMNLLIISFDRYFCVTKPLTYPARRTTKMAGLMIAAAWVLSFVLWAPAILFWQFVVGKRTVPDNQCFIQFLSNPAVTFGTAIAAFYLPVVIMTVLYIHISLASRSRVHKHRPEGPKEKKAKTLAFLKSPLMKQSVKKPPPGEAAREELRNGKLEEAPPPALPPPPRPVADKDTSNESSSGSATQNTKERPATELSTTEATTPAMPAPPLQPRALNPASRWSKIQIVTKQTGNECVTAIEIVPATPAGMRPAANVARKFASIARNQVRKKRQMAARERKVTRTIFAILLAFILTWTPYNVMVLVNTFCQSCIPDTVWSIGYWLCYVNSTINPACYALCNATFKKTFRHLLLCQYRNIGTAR

| SMILES | target | test | setting | measurement | result |
| --- | --- | --- | --- | --- | --- |
| CC(C)[C@@H](Nc1nc(Cl)nc2c1ncn2[C@H]1[C@H](O)[C@H](O)[C@]2(CCl)C[C@H]12)C1CC1 | HTR2C (Homo sapiens, UniProt P28335) | ligand displacement, radioligand | – | Ki | 3.81 µM |
| Nc1ncc(-c2nc(N3CCOCC3)nc(N3CCOCC3)n2)c(C(F)F)n1 | MAP3K7 (Homo sapiens, UniProt O43318) | binding, competition with immobilised ligand | 10 µM | remaining binding | 91% |
| N=C(N)NCCC[C@H](NC(=O)[C@H](Cc1ccccc1)NC(=O)[C@H](CCC(N)=O)NC(=O)OCc1ccccc1)C(=O)c1nccs1 | ST14 | cell-free assay | – | Ki | 0.0011 µM |
| [2H]c1c([2H])c([C@]2([2H])CCCN2C(=O)C(C)(C)Oc2ccc3cn[nH]c3c2)c([2H])c([2H])c1C([2H])([2H])[2H] | CSNK1A1L (Homo sapiens, UniProt Q8N752) | binding, competition with immobilised ligand | 1 µM | remaining binding | 86% |
| OCCN1CCN(CCCN2c3ccccc3Sc3ccc(C(F)(F)F)cc32)CC1 | TMEM97 | ligand displacement, radioligand | – | Ki | 0.0666 µM |
| COc1ccccc1NC(=O)CSc1nc2cccnc2n1-c1ccccc1OC | PFF0160c | enzyme activity, inhibitor, absorbance | – | IC50 | 7.22 µM |
| COCCCC/C(=N\OCCN)c1ccc(C(F)(F)F)cc1 | TMEM97 | ligand displacement, radioligand | – | Ki | 3.37 µM |
| O=C(Nc1cccc(Cl)c1)Nc1ccc2c(c1)C=CCP(=O)(O)O2 | CA2 | enzyme activity, inhibitor, stopped-flow | – | Ki | > 10 µM |
| Cc1nn(C)cc1-c1nc2c(N3CCN(Cc4ccc(Cl)cc4)CC3)c(Cl)cnc2[nH]1 | EPHB6 (Homo sapiens, UniProt O15197) | binding, competition with immobilised ligand | 1 µM | remaining binding | 73% |
| N=C(N)NCCC[C@H](NC(=O)[C@H](Cc1ccccc1)NC(=O)[C@@H]1CCCN1C(=O)[C@H](CO)NC(=O)[C@@H]1CCCN1C(=O)[C@@H](N)Cc1ccccc1)C(=O)O | ACE (Oryctolagus cuniculus, UniProt P12822) | enzyme activity, inhibitor | – | Ki | 8750 µM |
| O=C(Nc1ccc(Cl)cc1)Nc1ccc2c(c1)C=CCP(=O)(O)O2 | CA2 | enzyme activity, inhibitor, stopped-flow | – | Ki | > 10 µM |
| Cc1cccc(C(=O)N2CCN(Cc3cccc(NC(=O)c4cccs4)c3)CC2)c1 | PFF0160c | enzyme activity, inhibitor, absorbance | – | IC50 | 2.43 µM |
| CCOC(=O)N[C@@H](CCCNC(=N)N)C(=O)N[C@@H](CCC(N)=O)C(=O)N[C@@H](Cc1ccccc1)C(=O)N[C@@H](CCCNC(=N)N)C(=O)c1nc2ccccc2s1 | ST14 | cell-free assay | – | Ki | 0.00098 µM |
| CNCCC(Oc1ccc(C(F)(F)F)cc1)c1ccccc1 (stereo not drawn) | TMEM97 | ligand displacement, radioligand | – | Ki | 0.792 µM |
| O=C(Nc1ccc2c(c1)C=CCP(=O)(O)O2)c1ccco1 | CA1 | enzyme activity, inhibitor, stopped-flow | – | Ki | > 10 µM |
| FC(F)(F)c1ccc2c(c1)N(CCCN1CCN(CCCl)CC1)c1ccccc1S2 | TMEM97 | ligand displacement, radioligand | – | Ki | 0.467 µM |
| CO[C@H]1C[C@@H]2\C=C(C)/C=C/C=C\C(=O)N[C@H](c3ccccc3)C/C=C/CC[C@H](O)CC(=O)C2=C1O | Replicase polyprotein 1ab, main protease (Feline coronavirus, UniProt Q98VG9) | enzyme activity, inhibitor, fluorescence | – | Ki | 11.8 µM |
| O=C(Nc1ccc2c(c1)C=CCP(=O)(O)O2)c1ccccc1Br | CA1 | enzyme activity, inhibitor, stopped-flow | – | Ki | > 10 µM |
| Cc1cc2c(s1)Nc1ccccc1N=C2N1CCN(C)CC1 | TMEM97 | ligand displacement, radioligand | – | Ki | > 10 µM |
| O=C(Nc1ccc2c(c1)C=CCP(=O)(O)O2)c1ccc(I)cc1 | CA1 | enzyme activity, inhibitor, stopped-flow | – | Ki | > 10 µM |
| COc1cc2c(cc1OC)CN(CCc1ccc(NC(=O)c3cccc4c(=O)c5cccc(OC)c5[nH]c34)cc1)CC2 | CHRM4 (Homo sapiens, UniProt P08173) | cell-free assay | – | Ki | 0.954 µM |

Excerpt of the above:
| SMILES | target | test | setting | measurement | result |
| --- | --- | --- | --- | --- | --- |
| Cc1nn(C)cc1-c1nc2c(N3CCN(Cc4ccc(Cl)cc4)CC3)c(Cl)cnc2[nH]1 | EPHB6 (Homo sapiens, UniProt O15197) | binding, competition with immobilised ligand | 1 µM | remaining binding | 73% |
| N=C(N)NCCC[C@H](NC(=O)[C@H](Cc1ccccc1)NC(=O)[C@@H]1CCCN1C(=O)[C@H](CO)NC(=O)[C@@H]1CCCN1C(=O)[C@@H](N)Cc1ccccc1)C(=O)O | ACE (Oryctolagus cuniculus, UniProt P12822) | enzyme activity, inhibitor | – | Ki | 8750 µM |
